Published values pooled from the literature.
Parts stem from different laboratories: compare values within a part only. Changes are numbered by the printed parent chain.

Set 1 — technique: universal PBM; form: double-stranded DNA, one strand shown; sample: in vitro; tested at: 600 nM; direction: higher = stronger binding
Target: Sal-like protein 4, full length isoform A (SALL4, Homo sapiens, UniProt Q9UJQ4, residues 1-1053)
UniProt Q9UJQ4, sequence (whole entry, looked up): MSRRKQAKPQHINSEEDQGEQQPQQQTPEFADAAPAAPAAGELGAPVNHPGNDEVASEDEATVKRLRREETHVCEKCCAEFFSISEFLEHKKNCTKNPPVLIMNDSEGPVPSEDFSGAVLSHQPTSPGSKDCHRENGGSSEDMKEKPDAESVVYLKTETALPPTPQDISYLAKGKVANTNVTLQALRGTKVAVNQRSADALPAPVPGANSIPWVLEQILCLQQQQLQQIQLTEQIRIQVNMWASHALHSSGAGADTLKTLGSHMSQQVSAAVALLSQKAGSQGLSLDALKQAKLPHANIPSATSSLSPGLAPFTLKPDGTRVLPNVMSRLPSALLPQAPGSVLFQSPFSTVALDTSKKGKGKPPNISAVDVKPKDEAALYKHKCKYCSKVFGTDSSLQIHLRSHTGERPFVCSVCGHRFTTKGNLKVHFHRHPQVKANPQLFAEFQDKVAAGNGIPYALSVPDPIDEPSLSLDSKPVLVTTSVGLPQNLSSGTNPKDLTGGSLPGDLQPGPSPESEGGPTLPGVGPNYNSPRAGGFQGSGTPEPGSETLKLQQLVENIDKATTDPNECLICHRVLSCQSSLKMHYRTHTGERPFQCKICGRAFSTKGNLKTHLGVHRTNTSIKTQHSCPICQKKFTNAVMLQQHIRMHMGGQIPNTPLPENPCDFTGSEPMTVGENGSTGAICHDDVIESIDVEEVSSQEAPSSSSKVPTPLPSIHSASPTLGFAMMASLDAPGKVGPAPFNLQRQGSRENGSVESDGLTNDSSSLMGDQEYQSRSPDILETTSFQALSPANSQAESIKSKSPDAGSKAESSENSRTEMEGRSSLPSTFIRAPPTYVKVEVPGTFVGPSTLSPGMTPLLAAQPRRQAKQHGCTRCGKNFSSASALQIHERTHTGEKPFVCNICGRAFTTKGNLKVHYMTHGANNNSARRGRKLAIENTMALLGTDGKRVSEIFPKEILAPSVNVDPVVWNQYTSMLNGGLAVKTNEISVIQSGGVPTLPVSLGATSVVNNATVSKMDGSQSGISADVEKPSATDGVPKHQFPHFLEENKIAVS
Notes: 8-mer, flanks averaged, mean of replicates
Sequence	E-score
GTCCTGTA	0.00165
GTAGAAGA	-0.0893
GGGAGTAC	-0.202
AAATGTAC	0.27
ATAGAGGA	0.0385
CGTCCTAA	-0.0299
AAATTACT	0.342

Set 2 — technique: DHFR PCA, deep sequencing; sample: yeast; together with: (+)-ABA 710 µM; baseline: wild-type fitted maximum; direction: higher = stronger binding
Target: ABI1, truncated, D143A, DHFR fusion (Arabidopsis thaliana)
Notes: methotrexate growth selection, single substitutions
Starting sequence: PYL1, truncated, DHFR fusion (Arabidopsis thaliana); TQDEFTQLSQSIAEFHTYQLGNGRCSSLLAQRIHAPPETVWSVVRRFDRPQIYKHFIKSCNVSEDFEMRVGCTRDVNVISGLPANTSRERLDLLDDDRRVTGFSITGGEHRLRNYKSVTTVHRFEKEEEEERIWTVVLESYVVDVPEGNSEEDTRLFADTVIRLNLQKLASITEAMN
Change	relative binding score [%]
P83Y	39.7
E139I	94.1
I162S	35.6
S59G	97.1
S117I	3.56
L93I	110
C25D	-2.55

Set 3 — target: CCNB1, cyclin fold, Cln2 fusion (human); technique: yeast growth competition, sequencing; sample: yeast; notes: weak parent motif; baseline: not given; direction: higher = stronger binding
Starting sequence: RP1L1 docking peptide (human); TLGLGPLSFTLED
Change	normalised enrichment score
TLGLGPLSFALED [T10A]	0.0396
TLGAGPLSFTLED [L4A]	-0.0862
TAGLGPLSFTLED [L2A]	0.141
TLGLGALSFTLED [P6A]	-0.239
TLGLAPLSFTLED [G5A]	0.0263
TLALGPLSFTLED [G3A]	-0.0342

Further values, each from its own experiment
Molecule	target	assay	test system	setting	scale	quantity	result
PhoQ, residues 284 288 289 292 302 303 TTSMTC	PhoP, residues 12 14 15 18 19 LHSVW (Escherichia coli, UniProt P23836)	Sort-seq, measured: YFP reporter	E. coli	PhoQ-PhoP variant library, together with: 10 µM Mg2+	baseline: high Mg2+ state, higher = stronger signaling	fold induction	3.02

Repeated from above (set 1):
Sequence	E-score
CGTCCTAA	-0.0299
